Measurements of several laboratories.
Lines come from different studies, so protocols differ. Several values in a cell are separate wells, animals, samples, runs or records. Numbers after ± are the reported error.
Chain of UniProt O60656 (whole entry, looked up): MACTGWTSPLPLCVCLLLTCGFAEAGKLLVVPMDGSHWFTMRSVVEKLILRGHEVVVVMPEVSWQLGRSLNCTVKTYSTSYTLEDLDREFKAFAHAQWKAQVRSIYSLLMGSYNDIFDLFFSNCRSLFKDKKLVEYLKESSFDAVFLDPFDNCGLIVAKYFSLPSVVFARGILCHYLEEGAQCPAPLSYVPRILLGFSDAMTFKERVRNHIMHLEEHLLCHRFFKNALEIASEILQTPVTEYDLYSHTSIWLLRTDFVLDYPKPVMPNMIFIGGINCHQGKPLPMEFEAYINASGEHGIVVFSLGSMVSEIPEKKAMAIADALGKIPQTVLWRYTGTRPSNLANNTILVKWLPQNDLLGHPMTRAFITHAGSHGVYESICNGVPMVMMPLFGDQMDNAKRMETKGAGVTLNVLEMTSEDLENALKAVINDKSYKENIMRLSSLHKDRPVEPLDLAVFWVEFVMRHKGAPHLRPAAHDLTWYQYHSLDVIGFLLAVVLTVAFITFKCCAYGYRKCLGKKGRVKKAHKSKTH

Substance = CC[C@H](C)[C@H](NC(=O)[C@H](CC(=O)O)NC(=O)[C@H](CCCCN)NC(=O)[C@H](CCC(=O)O)NC(=O)[C@H](CCC(=O)O)NC(=O)[C@H](CCCCN)NC(C)=O)C(=O)N[C@@H](CC(N)=O)C(=O)N[C@@H](CC(N)=O)C(=O)N[C@@H](CC(N)=O)C(=O)N[C@H](C(=O)N[C@@H](CCCCN)C(=O)N[C@@H](CCCCN)C(=O)N[C@H](C(N)=O)[C@@H](C)O)C(C)C; target or system = SPSB2-iNOS interaction, mouse; test = protein binding, inhibitor, immunoprecipitation Western blot; test system = cell lysates; conditions = 1 µM; measurement = inhibition; value = inhibited
Substance = O=C1c2c(O)cc(O)cc2O[C@H](c2cc(O)c(O)c(O)c2)[C@H]1O; target or system = GABAA receptor, rat; test = mIPSC enhancement, positive allosteric modulator, whole-cell patch clamp; test system = hippocampal neurons, cultured; conditions = DIV14, no ethanol; measurement = EC50; value = ~0.2 µM
Substance = Cc1c(Cl)cccc1NC(=O)c1cc(-c2ccc(F)c(O)c2)on1; target or system = mitochondrial permeability transition pore, mouse; test = mitochondrial swelling inhibition; test system = isolated mouse liver mitochondria; conditions = together with: Ca2+; measurement = EC50; value = 0.00089 ± 0.000141 µM
Substance = C=CC(C)(CO)c1cc(CC(=O)c2ccc(O)cc2O)c(O)cc1O (stereo not shown); target or system = quinone reductase; test = inducer; test system = Hepa1c1c7; measurement = concentration doubling activity; value = > 20 µM
Substance = COc1ccc2cc3[n+](cc2c1OC)CCc1cc2c(cc1-3)OCO2; target or system = class IIb HDAC; test = enzyme activity; test system = bovine heart lysate; measurement = IC50; value = 69 µM
Substance = Nc1nc2c(ncn2[C@@H]2O[C@@H]3COP(=O)(O)O[C@H]3[C@H]2O)c(=O)[nH]1; target or system = cone cyclic nucleotide-gated channel; test = ion current, agonist, inside-out patch clamp; conditions = pH 7.5, room temperature, after EDTA/EGTA, -40 mV, ph 7.5, together with: Ca2+ 20 µM, Mg2+ 100 µM; measurement = EC50; value = 61.4 µM and 78 µM
Substance = ETGKLCS; target or system = human syntenin PDZ1-2 tandem; test = binding, proteomic peptide phage display; test system = peptide; conditions = phage pools rounds 4 and 5; scale = higher = stronger enrichment; measurement = NGS read count; value = 92
Substance = Cc1cc(O)c2c(c1)C(=O)c1cc(O)cc(O)c1C2=O; target or system = class IIb HDAC; test = enzyme activity; test system = bovine heart lysate; measurement = IC50; value = 29 µM
Substance = COc1cc(F)c(C(C)C)cc1-c1ccc(C(F)(F)F)cc1CN1C(=O)O[C@H](c2cc(C(F)(F)F)cc(C(F)(F)F)c2)[C@@H]1C; target or system = CETP, human; test system = human plasma; conditions = 0.1 to 10 µM, 21 h; measurement = pre-beta-HDL formation decrease; value = > 46%
Substance = C[N+](C)(C)CCOC(N)=O; target or system = Yes kinase, rat; test = Western blot, item: Yes pY416; test system = pancreatic acini; conditions = 10 µM, 1 min; scale = baseline: untreated control; measurement = phosphorylation level; value = 207 ± 28%
Substance = O=C1c2c(O)cc(O)cc2O[C@H](c2cc(O)c(O)c(O)c2)[C@H]1O; target or system = class IIb HDAC; test = enzyme activity; test system = bovine heart lysate; measurement = IC50; value = 26 µM
Substance = GHRNGLE; target or system = human syntenin PDZ1-2 tandem; test = binding, proteomic peptide phage display; test system = peptide; conditions = phage pools rounds 4 and 5; scale = higher = stronger enrichment; measurement = NGS read count; value = 110
Substance = CC(C)C[C@H](NC(=O)[C@@H]1CCCN1C(=O)[C@H](CC(=O)O)NC(=O)[C@H](CO)NC(=O)[C@H](C)NC(=O)CC1c2ccccc2-c2ccccc21)C(=O)NCC(=O)N[C@H](C(=O)N[C@H](C(=O)N[C@@H](CCCNC(=N)N)C(=O)N1CCC[C@H]1C(=O)N[C@@H](CCCNC(=N)N)C(=O)N[C@@H](C)C(N)=O)C(C)C)C(C)C; target or system = Klotho (mouse); test = binding, size-exclusion affinity selection LC-MS/MS; conditions = 50 ng, together with: 50 µg Klotho; measurement = recovery; value = 0.5%
Substance = CCCOC(=O)c1cc(O)c(O)c(O)c1; target or system = lysine-containing peptide; test = mass spectrometry; conditions = 24 h, pH 10.2, room temperature; measurement = maximal peptide depletion; value = -59.2%
Substance = GKVKVGVNGFGRIGRLVTRAAFNSGKVDIVA; target or system = Candida albicans Sap3; test = enzyme activity, inhibitor; test system = peptide; conditions = concentration not given, 30 min, pH 3.2, 37 °C, together with: BSA substrate; measurement = inhibition; value = no inhibition
Substance = CARLSLSWRGLTLCPSK (68Ga-DOTA-labelled); target or system = mouse VAP-1; test = ex vivo biodistribution; test system = peptide, wild-type mouse, B16 melanoma xenograft, kidney; conditions = 60 min, together with: 500-fold excess unlabelled DOTA-peptide; measurement = uptake; value = 6.39 ± 1.19 SUV
Substance = IRDFLRW; target or system = human syntenin PDZ1-2 tandem; test = binding, proteomic peptide phage display; test system = peptide; conditions = phage pools rounds 4 and 5; scale = higher = stronger enrichment; measurement = NGS read count; value = 252
Substance = Nc1nc2sc(CCc3ccc(C(=O)N[C@@H](CCC(=O)O)C(=O)O)cc3)cc2c(=O)[nH]1; target or system = human folate receptor beta; test system = D4; conditions = concentration not given, together with: [3H]folic acid; scale = baseline: folic acid; measurement = relative binding affinity; value = < 0.01
Substance = RWFYFN / DRGSGK / WEKRWD (cyclic); target or system = α-synuclein; test = amyloid formation, inhibitor, circular dichroism; test system = peptide; conditions = 2 molar equivalents, pH 6.6, 37 °C, together with: HFIP 2 vol-%; scale = baseline: uninhibited control; measurement = β-structure formation; value = 80 ± 7%
Substance = CC1(C)CC(=O)C2=C(C1)Oc1ncnc(Nc3ccc([N+](=O)[O-])cc3)c1C2c1ccccc1F (stereo not shown); target or system = calf thymus DNA; test = UV-visible absorption titration; conditions = 20 µM, about 2% DMSO; measurement = binding constant; value = 1e+06 M⁻¹
Substance = COc1cc(/C=C/C(=O)O)cc(OC)c1O; target or system = BCRP (ABCG2), rat; test = protein expression, western blot; test system = Wistar rats, intestine; conditions = 40 mg/kg; scale = baseline: untreated rats; measurement = inhibition; value = 83.2%
Substance = O=c1c(O)c(-c2ccc(O)c(O)c2)oc2cc(O)cc(O)c12; target or system = class IIb HDAC; test = enzyme activity; test system = bovine heart lysate; measurement = IC50; value = 37 µM
Substance = CC[N+](CC)(CC)CC; target or system = Na,K-ATPase (rat); test = Na,K pump current, inhibitor, whole-cell voltage clamp; test system = rat ventricular myocytes; conditions = pH 7.4, 37 °C, 0 mV, Na+-free bath, together with: competitive with extracellular K+; measurement = Ki; value = 26600 ± 700 µM
Substance = LYAADKH; target or system = human syntenin PDZ1-2 tandem; test = binding, proteomic peptide phage display; test system = peptide; conditions = phage pools rounds 4 and 5; scale = higher = stronger enrichment; measurement = NGS read count; value = 213
Substance = CN1CCN(CCCN2c3ccccc3Sc3ccc(C(F)(F)F)cc32)CC1; target or system = anoctamin-2 rat; test = Ca2+-activated Cl- current; test system = HEK293 transfected; conditions = 20 µM, 10 to 70 min, -70 mV; measurement = current density; value = 166 ± 24 pA/pF
Substance = O=Cc1ccc(CO)[nH]1; target or system = quinone reductase; test = inducer; test system = Hepa-1c1c7; conditions = 48 h; measurement = concentration doubling activity; value = > 100 µM
Substance = UGT1A9 (Homo sapiens, UniProt O60656); target or system = CCc1ccc(O)cc1; test = steady-state kinetics; conditions = pH 7.4, 37 °C; measurement = Vmax/Km; value = 75 µL/min/mg
Substance = LEQKAASAHNSYIVLAIENSFMTSFSK; target or system = VEGFR-3-Fc, recombinant, mouse; test = pull-down, western blot; test system = peptide; conditions = concentration not given, 2 h, pH 7.4, 4 °C; measurement = binding; value = inhibited
Substance = CC(C)(O)c1cn(-c2ccc(-c3cc(F)c(CO)c(S(C)(=O)=O)c3)cc2)c(C(C)(C)c2cccc(F)c2Cl)n1; target or system = nuclear hormone receptors except PXR; test = agonist; test system = cells; measurement = EC50; value = > 10 µM
Substance = NCCCCCCCCNS(=O)(=O)c1cccc2c(I)cccc12; target or system = anoctamin-2 rat; test = Ca2+-activated Cl- current; test system = HEK293 transfected; conditions = 50 µM, -70 mV, together with: free Ca2+ 7.5 µM; measurement = current inactivation; value = decreased
Substance = CC12CCCn3ccc(c31)-c1ccccc1NC(=O)CC2 (stereo not shown); target or system = tubulin (bovine brain); test = tubulin spiral formation, centrifugation; conditions = 20 min, 30 °C, 4% DMSO, together with: GTP and glutamate; measurement = EC50; value = 27 ± 3 µM
Substance = CC(C)c1cccc(C(C)C)c1O; target or system = GABA-A receptor rat; test = GABA-evoked chloride current, positive allosteric modulator, whole-cell patch clamp; test system = embryonic rat cortical neurons; conditions = pH 7.4, holding -60 mV, together with: GABA 5 µM; measurement = EC50; value = 6 µM
Substance = RGAVVTGR-NH2 (C-amide); target or system = α-synuclein; test = inhibitor, ThT fluorescence; test system = peptide; conditions = 2 molar equivalents, pH 6.6, 37 °C, together with: HFIP 2 vol-%; scale = baseline: uninhibited control; measurement = amyloid formation; value = 91 ± 15%
Substance = EEEPMNL; target or system = human syntenin PDZ1-2 tandem; test = binding, proteomic peptide phage display; test system = peptide; conditions = phage pools rounds 4 and 5; scale = higher = stronger enrichment; measurement = NGS read count; value = 165
Substance = C[N+](C)(C)CCCCC(NC(=O)OCC1c2ccccc2-c2ccccc21)C(=O)O (stereo not shown); target or system = LytA C-terminal domain, Streptococcus pneumoniae; test = binding, ITC; conditions = pH 7.4, 16 °C; measurement = Ka; value = 18700 ± 2200 M⁻¹
Substance = AAEDWCKKGDT; test system = peptide, human polyclonal IgM RF STR; conditions = concentration not given, 5 µg/mL mAb II-481 coated, together with: RF at 50% max binding concentration; measurement = inhibition; value = 0%
Substance = LEQKAASCHNSYIVLAIENSFMTSFSK; target or system = VEGFR-3-Fc, recombinant, mouse; test = pull-down, western blot; test system = peptide; conditions = concentration not given, 2 h, pH 7.4, 4 °C; measurement = binding; value = inhibited
Substance = C=CC(C)(O)Cc1cc(CC(=O)c2ccc(O)cc2O)c(O)cc1O (stereo not shown); target or system = quinone reductase; test = inducer; test system = Hepa1c1c7; measurement = concentration doubling activity; value = > 20 µM
Substance = Afamelanotide; target or system = spotted gar MC3R with MRAP2; test = cAMP reporter gene, agonist; test system = CHO; conditions = 4 h, 37 °C; measurement = EC50; value = 6.3e-05 ± 1.3e-05 µM
Substance = LIYWAST; test system = peptide, human polyclonal IgM RF WEAK; conditions = concentration not given, 5 µg/mL mAb II-481 coated, together with: RF at 50% max binding concentration; measurement = inhibition; value = 5%
Substance = O=CCCCC=O; target or system = lysine-containing peptide; test = mass spectrometry; conditions = 24 h, pH 10.2, room temperature; measurement = maximal peptide depletion; value = -55.1%
Substance = KPQTMER; target or system = human syntenin PDZ1-2 tandem; test = binding, proteomic peptide phage display; test system = peptide; conditions = phage pools rounds 4 and 5; scale = higher = stronger enrichment; measurement = NGS read count; value = 132
Substance = COc1ccc(-c2cc(C(=O)Nc3cc(Cl)cnc3C)no2)cc1O; target or system = mitochondrial permeability transition pore, mouse; test = mitochondrial swelling inhibition; test system = isolated mouse liver mitochondria; conditions = together with: Ca2+; measurement = EC50; value = 0.0105 ± 0.0011 µM

Repeated from above:
Substance = O=Cc1ccc(CO)[nH]1; target or system = quinone reductase; test = inducer; test system = Hepa-1c1c7; conditions = 48 h; measurement = concentration doubling activity; value = > 100 µM
Substance = CC(C)(O)c1cn(-c2ccc(-c3cc(F)c(CO)c(S(C)(=O)=O)c3)cc2)c(C(C)(C)c2cccc(F)c2Cl)n1; target or system = nuclear hormone receptors except PXR; test = agonist; test system = cells; measurement = EC50; value = > 10 µM
Substance = GKVKVGVNGFGRIGRLVTRAAFNSGKVDIVA; target or system = Candida albicans Sap3; test = enzyme activity, inhibitor; test system = peptide; conditions = concentration not given, 30 min, pH 3.2, 37 °C, together with: BSA substrate; measurement = inhibition; value = no inhibition
Substance = NCCCCCCCCNS(=O)(=O)c1cccc2c(I)cccc12; target or system = anoctamin-2 rat; test = Ca2+-activated Cl- current; test system = HEK293 transfected; conditions = 50 µM, -70 mV, together with: free Ca2+ 7.5 µM; measurement = current inactivation; value = decreased
Substance = O=C1c2c(O)cc(O)cc2O[C@H](c2cc(O)c(O)c(O)c2)[C@H]1O; target or system = GABAA receptor, rat; test = mIPSC enhancement, positive allosteric modulator, whole-cell patch clamp; test system = hippocampal neurons, cultured; conditions = DIV14, no ethanol; measurement = EC50; value = ~0.2 µM
Substance = CC[C@H](C)[C@H](NC(=O)[C@H](CC(=O)O)NC(=O)[C@H](CCCCN)NC(=O)[C@H](CCC(=O)O)NC(=O)[C@H](CCC(=O)O)NC(=O)[C@H](CCCCN)NC(C)=O)C(=O)N[C@@H](CC(N)=O)C(=O)N[C@@H](CC(N)=O)C(=O)N[C@@H](CC(N)=O)C(=O)N[C@H](C(=O)N[C@@H](CCCCN)C(=O)N[C@@H](CCCCN)C(=O)N[C@H](C(N)=O)[C@@H](C)O)C(C)C; target or system = SPSB2-iNOS interaction, mouse; test = protein binding, inhibitor, immunoprecipitation Western blot; test system = cell lysates; conditions = 1 µM; measurement = inhibition; value = inhibited
Substance = IRDFLRW; target or system = human syntenin PDZ1-2 tandem; test = binding, proteomic peptide phage display; test system = peptide; conditions = phage pools rounds 4 and 5; scale = higher = stronger enrichment; measurement = NGS read count; value = 252
